Assay results collected from several papers.
A part holds a random share of what one study measured.

Block 1
Target: RING finger protein unkempt homolog, zinc fingers 1-6, GST-SBP tag (UNK, Homo sapiens, UniProt Q9C0B0, residues 30-357)
UniProt Q9C0B0, sequence (30-357, looked up): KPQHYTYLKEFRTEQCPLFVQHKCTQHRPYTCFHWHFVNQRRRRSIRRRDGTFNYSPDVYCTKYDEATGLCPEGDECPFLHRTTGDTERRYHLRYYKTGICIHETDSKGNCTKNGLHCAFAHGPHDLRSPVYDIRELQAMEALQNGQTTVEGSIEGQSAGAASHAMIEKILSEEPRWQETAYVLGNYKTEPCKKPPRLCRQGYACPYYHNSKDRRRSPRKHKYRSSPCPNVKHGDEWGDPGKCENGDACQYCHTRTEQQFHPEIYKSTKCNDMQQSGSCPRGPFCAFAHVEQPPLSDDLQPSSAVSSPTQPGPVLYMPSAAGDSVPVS
Technique: RNA Bind-n-Seq
Molecule type: RNA
Matrix: in vitro
Concentration: not given
Setting: RNA with constant flanks, human and mouse sites, ends assumed
Relative to: input RNA pool
Direction: higher = stronger binding
With `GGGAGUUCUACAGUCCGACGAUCCACAUAAAAGCAAUUCAGAUUAAGGAGCAGCUCCUUGGCCAAGAAGAUUAUGAAGUGGCCCUUUCAGUGGGACACCUGGCAUCUCUGUAUAAUUAUGACAUGAAUCAGUAUGAAAAUGCUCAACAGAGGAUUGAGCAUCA` the bound/input enrichment was 0.233 ratio.
`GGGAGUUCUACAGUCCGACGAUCUGCACAUUCUGGGGUUGUUUUUGCUGCAUCAGAAGACAAACACUGGCACUCGUGGCUGUUUUUUUUUUUUUUUUUUUUUUUUUUUUCCUCCUUACAAGUCCAUAUGUGGUGCAGUGCUCACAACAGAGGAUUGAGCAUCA` gave a bound/input enrichment of 1.5 ratio.
`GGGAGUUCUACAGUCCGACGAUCGAUCUCAUGGAAGAGUAUCACACGUGGCAGAGCUUUGGGAACUCUCACAGGUUUUCCUUCUGUCAGUACCCAUUCGUUAUUUCUAUAGCUGCAAAAAAAAUCAUUAUUCAAAGAGACUCACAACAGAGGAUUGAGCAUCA` has a bound/input enrichment of 0.728 ratio.
The bound/input enrichment of `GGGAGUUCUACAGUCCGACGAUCCCUUCCCUGCCUCUCGGUGCUAUGCGUGGUCCUCCUCGGCCUCCCACUUGUGGGGGAAAGGGUUUUCUCUUUCUUUCUGUGUGUUUUGAGCCAGCACAGUUACCAAAAUUGAACUUGCCGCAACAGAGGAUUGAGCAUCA` is reported as 0.157 ratio.
With `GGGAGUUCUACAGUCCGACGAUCUCAGAAGGGCAGCUUGGCCUAGGCCACACCAACCACGUUCGAGAACCAACCCUGGUAACAGUUCUGCAAGGGAAAAACAUCCGCCAGAUUUCAGCGGGCCGUUGCCACAGUGCUGCAUGGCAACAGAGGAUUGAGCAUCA` the bound/input enrichment was 0.153 ratio.

Block 2
Target: Interferon regulatory factor 7, full length, phosphomimetic (IRF7, Homo sapiens, UniProt Q92985, residues 1-503, S471D/S472D/S475D/S476D/S477D/S483D/S484D/S487D)
Technique: protein-binding microarray
Molecule type: double-stranded DNA, one strand shown
Matrix: in vitro
Concentration: 2200 nM top
Setting: 60-bp whole probe
Added: salmon DNA 0.4 mg/ml
Relative to: random background probes
Direction: higher = stronger binding
Constant ends, left off below: GCCTAGCAC … GTCTTGATTCGCTTGACGCTGCTG
Residues (chain): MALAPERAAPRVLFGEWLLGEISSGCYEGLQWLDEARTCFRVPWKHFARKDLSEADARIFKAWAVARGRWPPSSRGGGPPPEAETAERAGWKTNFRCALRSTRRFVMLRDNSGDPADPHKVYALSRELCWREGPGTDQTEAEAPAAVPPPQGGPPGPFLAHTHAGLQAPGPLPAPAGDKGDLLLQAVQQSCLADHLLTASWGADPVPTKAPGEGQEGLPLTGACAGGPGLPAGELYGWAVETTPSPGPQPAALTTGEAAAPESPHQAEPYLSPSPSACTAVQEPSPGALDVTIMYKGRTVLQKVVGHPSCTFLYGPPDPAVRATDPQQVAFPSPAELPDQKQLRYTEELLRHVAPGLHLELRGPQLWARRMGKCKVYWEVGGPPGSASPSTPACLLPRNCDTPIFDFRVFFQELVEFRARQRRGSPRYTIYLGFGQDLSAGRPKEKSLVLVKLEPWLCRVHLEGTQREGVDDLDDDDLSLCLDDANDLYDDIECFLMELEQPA
For `GACGGTTTCGGTATCGAGACGTGCTAG`, “fitted relative affinity” read 6.37 z-score.
Under “fitted relative affinity”, `GGCGGTCTCGGTATCGGGACGTGCTAG` is recorded as -0.179 z-score.
For `TGTGCCATATTTATCTGCAAGTGCTAG`, “fitted relative affinity” read 0.665 z-score.
Under “fitted relative affinity”, `CACGGTATCCTACTGCTGACGTGCTAG` is recorded as 0.897 z-score.
`GACGGTTTCGGCACTGGGGACGTGCTA`: “fitted relative affinity” 1.91 z-score.
For `TTACATATCAGTCTCGATTAGTGCTAG`, “fitted relative affinity” read 1.27 z-score.

Block 3
Target: Histone acetyltransferase KAT6A, winged helix 1, GST fusion (KAT6A, Homo sapiens, UniProt Q92794, residues 1-85)
Technique: protein binding microarray
Molecule type: double-stranded DNA, one strand shown
Matrix: in vitro
Concentration: not given
Setting: 8-mer, flanks averaged, mean of 2 arrays, mostly near background
Relative to: not given
Direction: higher = stronger binding
Residues (chain): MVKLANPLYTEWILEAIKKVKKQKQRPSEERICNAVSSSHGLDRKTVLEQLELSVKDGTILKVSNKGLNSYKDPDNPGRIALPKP
With `AGTTCGAC` the E-score was -0.105.
`AATGTACA` gave an E-score of -0.086.
`CCTCACGC` has an E-score of 0.0927.
`AAGAGCCA` gave an E-score of -0.117.
With `GATGAGAC` the E-score was 0.0277.
With `GACAGTGA` the E-score was -0.0809.

Further values, each from its own experiment
With `PhoQ, residues 284 288 289 292 302 303 ASASEQ` the fold induction was 6.49 (PhoP, residues 12 14 15 18 19 LYHSL (Escherichia coli, UniProt P23836); Sort-seq, item: YFP reporter; E. coli; PhoQ-PhoP variant library, added: 10 µM Mg2+; relative to: high Mg2+ state, higher = stronger signaling).
